# Assay results pooled from the literature.
# Parts stem from different laboratories: compare values within a part only. Changes are numbered by the printed parent chain.

# Series 1
# Target: Interferon regulatory factor 7, full length, phosphomimetic (IRF7, Homo sapiens, UniProt Q92985, residues 1-503, S471D/S472D/S475D/S476D/S477D/S483D/S484D/S487D)
# Method: protein-binding microarray
# Form: double-stranded DNA, one strand shown
# Matrix: in vitro
# Tested at: 2200 nM top
# Notes: 60-bp whole probe
# With: salmon DNA 0.4 mg/ml
# Relative to: random background probes
# Reading: higher = stronger binding
# Shared flanks, not repeated: GCCTAGCAC … GTCTTGATTCGCTTGACGCTGCTG
# Residues (chain): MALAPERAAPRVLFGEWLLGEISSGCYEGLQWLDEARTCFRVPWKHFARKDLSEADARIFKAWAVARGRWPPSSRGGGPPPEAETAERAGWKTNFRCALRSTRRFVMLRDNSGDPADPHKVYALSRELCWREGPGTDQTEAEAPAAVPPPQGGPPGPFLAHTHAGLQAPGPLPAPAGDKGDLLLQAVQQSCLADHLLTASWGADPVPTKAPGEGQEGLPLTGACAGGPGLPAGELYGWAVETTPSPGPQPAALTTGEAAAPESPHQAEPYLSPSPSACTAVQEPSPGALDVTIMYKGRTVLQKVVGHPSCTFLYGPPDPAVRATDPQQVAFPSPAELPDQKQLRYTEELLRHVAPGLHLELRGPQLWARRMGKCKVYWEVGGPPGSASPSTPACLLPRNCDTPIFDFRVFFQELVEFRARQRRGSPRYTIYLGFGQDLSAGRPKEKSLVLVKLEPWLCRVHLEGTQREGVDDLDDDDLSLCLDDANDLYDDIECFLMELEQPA
Strand,fitted relative affinity [z-score]
TTAGAGTTCAGACTGGATTAGTGCTAG,-0.696
TTAGATTTCGGGTATCGATGAGTGCTA,2.5
TTTTCCAGAGGCCCAGCCAGGTGCTAG,-0.0151
TTAGATTCCAGTCTCGATTAGTGCTAG,1.13
GACGATATCAGAGTGGAGACGTGCTAG,-0.303
TCCTAATTCTCTTTTCACTTGTGCTAG,2.11
TCTAATTAGAATTTAAAACAGTGCTAG,-0.758
TCACATCTCATATAAATAACTGTGCTA,0.886
GAGGGTATCGGGACTGGGGACGTGCTA,-0.634
CTGGTCTCCGGTGTTTCCTAGTGCTAG,0.548
GACGGTTTCGGACTGGGGGCGTGCTAG,4.03
GAGGGTATCGGGTTTCGGGACGTGCTA,1.2
TTGGAACTGGGGTATCGATTAGTGCTA,0.0756
GACGGACTGGACTTTCGTGACGTGCTA,1.06
GACGGTATCGGGTGTCGGGACGTGCTA,-0.486
AAGACTTTCTTTCAAATGAAGTGCTAG,-0.181
TTGAAAAAATATTTATTTCAGTGCTAG,-0.879

# Series 2
# Target: UBE2Q1 UBC core domain (UniProt Q7Z7E8)
# Method: yeast two-hybrid
# Matrix: yeast
# Notes: mostly zero background
# Relative to: not given
# Reading: higher = stronger interaction
# B1: TRIM5 RING domain (UniProt Q9C035); chain ILVNVKEEVTCPICLELLTQPLSLDCGHSFCQACLTANHKKSMLDKGESSCPVCRISYQPENIRP
# B2: TRIM4 RING domain (UniProt Q9C037); chain EAEDIQEELTCPICLDYFQDPVSIECGHNFCRGCLHRNWAPGGGPFPCPECRHPSAPAALRP
# B3: TRIM40 RING domain (UniProt Q6P9F5); chain LQKDNQEEGVCPICQESLKEAVSTNCGHLFCRVCLTQHVEKASASGVFCCPLCRKPCSEEVLG
# Target sequence (chain): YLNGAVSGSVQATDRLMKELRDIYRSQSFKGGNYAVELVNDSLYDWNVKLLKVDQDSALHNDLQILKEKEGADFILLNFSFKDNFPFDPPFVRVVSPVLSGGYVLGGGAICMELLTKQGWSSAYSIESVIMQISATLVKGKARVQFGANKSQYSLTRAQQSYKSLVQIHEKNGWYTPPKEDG
Molecule,lacZ reporter activity
DHGAVGQEMCCPICCSEYVKGEVATELPCHHYFHKPCVSIWLQKSGTCPVCRCMFPPPL (PJA1 RING domain (UniProt Q8NG27)),0
B1 (TRIM5 RING domain),0
MPIRALCTICSDFFDHSRDVAAIHCGHTFHLQCLIQWFETAPSRTCPQCRIQVGKRTIIN (TRAIP RING domain (UniProt Q9BWF2)),0
ASLPTSEEDLCPICYAHPISAVFQPCGHKSCKACINQHLMNNKDCFFCKTTIVSVEDWE (RNF123 RING domain (UniProt Q5XPI4)),0
B2 (TRIM4 RING domain),0
B3 (TRIM40 RING domain),0

# Series 3
# Target: CCNE1, cyclin fold, Cln2 fusion (human)
# Method: yeast growth competition, sequencing
# Matrix: yeast
# Notes: strong parent motif
# Relative to: not given
# Reading: higher = stronger binding
# Parent: INSM1 docking peptide (human); PKAIRKLHFEDEV
Variant,normalised enrichment score
E12Q,3.21
L7D,-0.272
K6G,0.243
K6T,2.39
K2Y,3.67
F9V,0.24
A3Y,3.53
D11T,3.16
I4F,3.6
I4H,1.65
A3I,1.03
F9D,-0.225
F9L,0.259
E10K,1.68
K6V,4.24

# Other studies, line by line
# Method: cross-linking MS
Substance,partner,test system,setting,measurement,value
"PDCD5 (Homo sapiens, UniProt O14737)","CCT4 (Homo sapiens, UniProt P50991)",,hits only,interaction screen,cross-linked
"SEPTIN7 (Homo sapiens, UniProt Q16181)","SEPTIN11 (Homo sapiens, UniProt Q9NVA2)",,hits only,interaction screen,cross-linked
"SF3A3 (Homo sapiens, UniProt Q12874)","SF3A1 (Homo sapiens, UniProt Q15459)",,hits only,interaction screen,cross-linked
"MCM2 (Homo sapiens, UniProt P49736)","MCM6 (Homo sapiens, UniProt Q14566)",cell fractions,with: DHSO,cross-linked residues,D856 to D592

# A few entries again (series 1):
Strand,fitted relative affinity [z-score]
GAGGGTATCGGGACTGGGGACGTGCTA,-0.634
CTGGTCTCCGGTGTTTCCTAGTGCTAG,0.548
GACGGTTTCGGACTGGGGGCGTGCTAG,4.03
GAGGGTATCGGGTTTCGGGACGTGCTA,1.2
